Experimental data pooled from the literature.
Parts stem from different laboratories: compare values within a part only. Positions count from the first letter of the parent shown.
UniProt Q96B02, sequence (whole entry, looked up): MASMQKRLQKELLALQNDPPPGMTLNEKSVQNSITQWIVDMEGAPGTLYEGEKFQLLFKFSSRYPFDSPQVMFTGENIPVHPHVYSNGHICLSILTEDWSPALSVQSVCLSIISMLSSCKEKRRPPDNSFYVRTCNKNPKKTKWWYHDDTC
UniProt P49459, sequence (whole entry, looked up): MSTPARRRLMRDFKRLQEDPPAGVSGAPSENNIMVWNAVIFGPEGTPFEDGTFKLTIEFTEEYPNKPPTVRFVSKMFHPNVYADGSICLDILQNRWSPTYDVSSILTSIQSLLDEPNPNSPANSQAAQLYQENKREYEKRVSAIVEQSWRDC
UniProt P61077, sequence (whole entry, looked up): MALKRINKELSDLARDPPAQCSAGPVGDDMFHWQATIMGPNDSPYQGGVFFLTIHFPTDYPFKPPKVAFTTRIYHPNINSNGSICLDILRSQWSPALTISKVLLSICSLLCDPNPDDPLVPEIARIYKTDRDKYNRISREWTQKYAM

Block 1
Target: CCND3, cyclin fold, Cln2 fusion (human)
Technique: yeast growth competition, sequencing
Matrix: yeast
Notes: weak parent motif
Reference: not given
Reading: higher = stronger binding
Parent: viral docking peptide; YKVKRRLVFGADD; partner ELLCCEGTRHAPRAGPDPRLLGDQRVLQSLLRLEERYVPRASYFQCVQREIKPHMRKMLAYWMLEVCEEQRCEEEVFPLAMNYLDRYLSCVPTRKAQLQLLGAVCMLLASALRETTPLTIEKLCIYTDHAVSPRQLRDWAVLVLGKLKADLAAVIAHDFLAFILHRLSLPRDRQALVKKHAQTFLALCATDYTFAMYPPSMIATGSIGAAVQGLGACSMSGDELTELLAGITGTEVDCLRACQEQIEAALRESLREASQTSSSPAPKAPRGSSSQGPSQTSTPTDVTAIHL
Change | normalised enrichment score
K4I | -0.188
F9P | 0.132
R5A | 0.276
F9G | 0.249
A11V | 0.165
L7G | 0.225
K4Q | 0.452
D12W | -0.0565
R5K | 0.153
R6A | 0.278
R5T | -0.0304
G10D | 0.731
F9Q | 0.658
V3A | 0.75
A11K | -0.204
F9C | 0.519
D12N | 0.358
R5Y | 0.141
K4D | 0.025
G10H | -0.0825
K2L | 0.267
A11R | 0.105
K2Y | 0.0845
R6E | 0.177
K2Q | 0.359

Block 2
Target: HLA class I histocompatibility antigen, A alpha chain, allele A*25:01 (Homo sapiens, UniProt P04439)
Observed: peptide-MHC binding
Form: peptide
Concentration: concentration not given
Sequence | binding
GLYLYRFHV | inactive
RAFWGQVQK | inactive
VMTDGPANK | inactive
MHYKLDEVL | inactive
VLYHRYNLV | inactive
KLWASFFQG | inactive

Block 3
Sequence: B1 (CNOT4 RING domain)
Technique: yeast two-hybrid
Matrix: yeast
Notes: mostly zero background
Reference: not given
Reading: higher = stronger interaction
B1: CNOT4 RING domain (UniProt O95628); chain MSRSPDAKEDPVECPLCMEPLEIDDINFFPCTCGYQICRFCWHRIRTDENGLCPACRKPYPED
target | lacZ reporter activity
UBE2W UBC core domain (UniProt Q96B02) | 10400
UBE2A UBC core domain (UniProt P49459) | 0
UBE2D3 UBC core domain (UniProt P61077) | 15000

Block 4
Target: Prothrombin, mature alpha-thrombin (F2, Homo sapiens, UniProt P00734)
Technique: aptamer microarray, sandwich
Form: DNA with 2'F-ANA
Matrix: in vitro
Concentration: 200 nM
Notes: whole 15-mer aptamer, many near background
Together with: Cy3 exosite-II aptamer, 400 nM
Reading: higher = stronger binding
Strand: GGTTGGTGTGGTTGG
Modification | mean fluorescence intensity
2'F-ANA at 1 4 5 6 | 57.6 a.u.
2'F-ANA at 1 5 6 7 9 11 12 14 | 43.8 a.u.
2'F-ANA at 3 4 7 8 9 10 12 14 15 | 206 a.u.
2'F-ANA at 1 2 3 6 8 10 13 15 | 73.3 a.u.
2'F-ANA at 2 3 6 7 8 12 14 | 444 a.u.
2'F-ANA at 2 4 9 10 11 12 13 14 | 65.5 a.u.
2'F-ANA at 1 5 8 9 10 13 | 46.1 a.u.
2'F-ANA at 1 4 5 6 8 9 11 14 | 49.4 a.u.

Block 5
Target: Runt-related transcription factor 3, Runt domain (RUNX3, Homo sapiens, UniProt Q13761, residues 53-186)
UniProt Q13761, sequence (53-186, looked up): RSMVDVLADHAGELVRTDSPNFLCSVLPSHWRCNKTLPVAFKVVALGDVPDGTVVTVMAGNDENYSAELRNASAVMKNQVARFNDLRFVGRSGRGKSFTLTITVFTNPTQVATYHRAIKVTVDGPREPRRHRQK
Technique: protein-binding microarray
Form: hairpin DNA
Matrix: in vitro
Concentration: not given
Notes: whole hairpin DNA, median over replicate spots
Reference: not given
Reading: higher = stronger binding
Strand | median fluorescence [a.u.]
GAGGCCTGTCGCGGTTGGCCTCCTGGCCAACCGCGACAGGCCTCACACTC (5mC at 20) | 7470
GAGGCCTGCGGTGGTTGGCCTCCTGGCCAACCACCGCAGGCCTCACACTC (5mC at 9 35) | 5070
GAGGCCCAACCGCGACAGCCTCCTGGCTGTCGCGGTTGGGCCTCACACTC | 6290
GAGGCCTGTCGCGGTTGGCCTCCTGGCCAACCGCGACAGGCCTCACACTC (5mC at 27) | 5360
GAGGCCTGTTGCGGCTGGCCTCCTGGCCAGCCGCAACAGGCCTCACACTC (5mC at 15) | 5800
GAGGCCTGTCCCGGTTGGCCTCCTGGCCAACCGGGACAGGCCTCACACTC | 5330
GAGGCCTGTTGTGGTCGGCCTCCTGGCCGACCACAACAGGCCTCACACTC (5mC at 28) | 6450
GAGGCCTGTCGCGGTTCGCCTCCTGGCGAACCGCGACAGGCCTCACACTC | 5740

Excerpt of the above (block 1):
Change | normalised enrichment score
R5A | 0.276
F9P | 0.132
D12N | 0.358
D12W | -0.0565
V3A | 0.75
L7G | 0.225
